Experimental data from different studies.
Each numbered part is a random draw from the data of one study; scales do not carry over between parts. Substitutions count along the parent as printed.

Sample 1 — technique: universal PBM; form: double-stranded DNA, one strand shown; medium: in vitro; tested at: not given; reading: higher = stronger binding
Target: Sal-like protein 4, full length isoform B (SALL4, Homo sapiens, UniProt Q9UJQ4-2, residues 1-616)
Setting: 8-mer, flanks averaged, mean of replicates
| Strand | E-score |
| --- | --- |
| ACAGAAAG | 0.0245 |
| CAAGCACG | -0.157 |
| CCTGGGGC | -0.465 |
| ATAGGCTC | 0.00122 |
| CTAGCGTC | -0.104 |
| CCAAATAA | 0.192 |
| AAGCTAGT | 0.103 |
| CTCAACAA | 0.0801 |
| AAACGGAA | 0.0666 |
| AATGACCG | -0.125 |
| CTAAGGCA | -0.129 |
| AAAGTCCG | -0.158 |
| CAATTACA | 0.273 |
| CAGAACTA | 0.109 |
| AATTTGGT | 0.109 |
| TGCGTCCA | -0.168 |
| CCGCCAAA | -0.0466 |
| CAGGTCTA | 0.113 |
| ACGAGAGC | -0.112 |
| CGACGTCG | -0.112 |
| ACCAATCG | 0.0938 |

Sample 2 — technique: protein binding microarray; form: double-stranded DNA, one strand shown; medium: in vitro; tested at: not given; relative to: not given; reading: higher = stronger binding
Target: Histone acetyltransferase KAT6A, winged helix 2, GST fusion (KAT6A, Homo sapiens, UniProt Q92794, residues 85-181)
Setting: 8-mer, flanks averaged, mean of 2 arrays, mostly near background
Residues (chain): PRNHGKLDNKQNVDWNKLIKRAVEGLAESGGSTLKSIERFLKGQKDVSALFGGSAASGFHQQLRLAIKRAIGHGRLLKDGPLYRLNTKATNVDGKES
| Strand | E-score |
| --- | --- |
| GTTGCGTA | 0.0843 |
| AGGTTAAA | 0.00258 |
| AGGTGCCA | -0.0698 |
| AACTACAT | -0.131 |
| GAATCATA | 0.0309 |
| CTCGACTC | -0.06 |
| CTCATCAA | -0.117 |
| TCACTCCA | -0.17 |
| CCCGGGAA | 0.164 |
| AAACCGCC | 0.153 |
| CATCATTA | 0.0947 |
| AAGTCACG | -0.133 |
| CCGGCCTC | 0.15 |
| CTGTCGGA | 0.213 |
| ACCATGGC | 0.114 |
| AGTAAGCC | -0.116 |
| AACTCTCT | -0.0688 |
| ACGGTTCT | -0.0808 |
| GAATGTTA | -0.148 |
| ATACGTAA | -0.142 |
| ACGCCCAG | 0.00709 |
| CGAATGAC | 0.141 |
| ACATCTTG | -0.169 |
| AACGCATG | -0.0208 |
| AAACCCTA | -0.0124 |

Sample 3 — target: CCNB3, cyclin fold, Cln2 fusion (human); technique: yeast growth competition, sequencing; medium: yeast; setting: weak parent motif; relative to: not given; reading: higher = stronger binding
Parent: CDC6 docking peptide (human); TLKGRRLVFDNQL; partner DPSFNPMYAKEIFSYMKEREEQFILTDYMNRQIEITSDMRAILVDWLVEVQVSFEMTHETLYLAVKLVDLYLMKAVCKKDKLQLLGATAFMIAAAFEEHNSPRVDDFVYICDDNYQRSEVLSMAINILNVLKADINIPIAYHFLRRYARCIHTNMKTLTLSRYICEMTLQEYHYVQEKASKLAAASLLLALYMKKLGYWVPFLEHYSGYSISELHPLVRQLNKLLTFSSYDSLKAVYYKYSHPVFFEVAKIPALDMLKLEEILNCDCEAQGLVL
| Variant | normalised enrichment score |
| --- | --- |
| TLKGPRLVFDNQL [R5P] | 0.086 |
| TLKGFRLVFDNQL [R5F] | 0.0737 |
| TLKGRRLIFDNQL [V8I] | 0.0527 |
| TLKGRRLVFDNNL [Q12N] | 0.14 |
| TLKGRRLVFDNKL [Q12K] | 0.0548 |
| TLKGRRLVFDGQL [N11G] | 0.507 |
| TCKGRRLVFDNQL [L2C] | 0.102 |
| TLKGRRLQFDNQL [V8Q] | -0.195 |
| THKGRRLVFDNQL [L2H] | -0.244 |
| TLKGRRLVTDNQL [F9T] | 0.153 |
| TLKGHRLVFDNQL [R5H] | -0.243 |
| TLKGIRLVFDNQL [R5I] | -0.244 |
| ILKGRRLVFDNQL [T1I] | 0.186 |
| VLKGRRLVFDNQL [T1V] | 0.433 |
| TLKGRTLVFDNQL [R6T] | 0.454 |
| LLKGRRLVFDNQL [T1L] | 0.0506 |
| TLKGRYLVFDNQL [R6Y] | 0.255 |

Sample 4 — technique: RNA Bind-n-Seq; form: RNA; medium: in vitro; tested at: 365 nM; relative to: no-protein control; reading: higher = stronger binding
Target: RNA binding protein fox-1 homolog 2, RRM domain, GST-SBP tag (RBFOX2, Homo sapiens, UniProt O43251-10, residues 100-194)
Setting: natural RNA segment, single round, ends assumed
Construct (chain): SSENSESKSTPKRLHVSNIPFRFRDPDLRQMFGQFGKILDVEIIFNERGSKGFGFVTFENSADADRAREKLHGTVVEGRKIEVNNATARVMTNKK
| Strand | RBNS enrichment (R) |
| --- | --- |
| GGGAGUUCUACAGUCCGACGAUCCACUUCCUCCUUUAAAAUGUCCUAUGCUUCCAGAGUCGGAACCUGAGUUAUAUGUGGUAGAUUAUAUUGACUCCAACCAUCAGCCUUUCUGAUGAGCCUGUAGAGAAGCCUGGAAUUCUCGGGUGCCAA | 0.808 |
| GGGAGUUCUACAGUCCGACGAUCACAGGUCUCAGUAUUAGCUUGUAUUACUGUACUAUCGAGUCCAUACACGGCUCUCUAAAGCCCUACAGAGGGUUCAUGUGUUUAGACCUGAGAAAUCAGGACAUGGAAAUUGGAAUUCUCGGGUGCCAA | 1.49 |
| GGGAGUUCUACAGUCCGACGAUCGCUUCAAUCUCUGAACACUGUAGACCCAUUAGAAGACUGUUCCGAUUGUUACAAAUUGUAGUGCCUGAAAACACUCUUAAGCUGAUUGUCUUAACAAAAUGAAAGUUCUCUGGAAUUCUCGGGUGCCAA | 0.67 |
| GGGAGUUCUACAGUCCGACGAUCUUAGUAGAUGGGGUUUCAUCAUGUUGGCCAGGCUGGUUUUGAACUCCUGACUUCAAAUGAUCCACCCACAUCCACCUGCCAGAGUGCUGAGAUUACAGGCGUGAGCCACCUGGAAUUCUCGGGUGCCAA | 0.604 |
| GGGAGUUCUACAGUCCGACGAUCCACAAGGAAUCUCUUAGAGUUUUGCAGCAAACAGGUGGUGCACAGGUCUGGAAGGUCUGGUCUCCCUUGGUCUUCCAUGGGAUGCUUAAUGUGGAGGGGAGAUAGAGAUUUGGAAUUCUCGGGUGCCAA | 1.81 |
| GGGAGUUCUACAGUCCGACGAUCAAGGGGAAGUACAGGACUACAUGGAAUCUGAUUUCUGGUGUUGCUUAUUACCAAAAAUGACAGAAUAUUCUUGAUCAAAUGUCUAGAUAUAUUUUUAAUAUUUGGGGCAUUGGAAUUCUCGGGUGCCAA | 0.658 |
| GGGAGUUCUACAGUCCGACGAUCCUCGCGUGUCAAUGUGGUCAUGGUUCAUGAAACCGGACCCUCAAGAUGGAUGAUUGCUUUUAACUACUGCCAGCUGAUGUCUCUCAGCCCCUGCCCUCAUACAAGAUUUUUGGAAUUCUCGGGUGCCAA | 0.394 |
| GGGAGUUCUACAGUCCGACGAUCCCAGAAGAACCAGCACUUACUUCUUUCUCUAGUUCUUAUGUUCAGAAUGUGGUAUUGGCCCUGGCCUAGCCCCUUCCACUUCCCAUAAUUCUUGCCUCUUUCCAUAAUUCUGGAAUUCUCGGGUGCCAA | 1.1 |
| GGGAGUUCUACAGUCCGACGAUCUUUUCCCUUACAGUUCCUGCUUGGUCCCACCCACUGAAGUAGCUCAUCGUAGUGCGGGCCGUAUUAGAGGCAGUGGGGUACGUUAGACUCAGAUGGAAAAGUAUUCUAGGUGGAAUUCUCGGGUGCCAA | 0.39 |
| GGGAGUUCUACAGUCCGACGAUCUUAACACUGCUAGGUAGCUCAGACAUAUCAGAAAAUCCAUAGUGGCCUGAGUUGUAAAUCCAAAACAUAUUUUUGUUGGCUUGGGACGUUAGGGGCUUGGGGUUUUCCUGUGGAAUUCUCGGGUGCCAA | 0.34 |
| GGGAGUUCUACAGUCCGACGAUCAUAAAUAUGUAAGACUAGGCUUUACUGUCUUAUGCUUAUGGACAUUGUAUAUUUGUAUUUUAUGACCAAGUAGACCAAGUCAGAAAGAUCUCUCUCGAGCGUACCAUAAAUGGAAUUCUCGGGUGCCAA | 0.272 |
| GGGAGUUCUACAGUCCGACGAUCAGUUUUGCUAGAAGCUGGCGCUUCCUCCCCAGGGCAGGGGCCCCACAGCACCUCAGACCCCAAGUGUGUCUGGAGUUCCCUGUCGGCCAGGGAGAGGACACCAGCACCUGUGGAAUUCUCGGGUGCCAA | 0.441 |

Sample 5 — technique: protein-binding microarray; form: double-stranded DNA, one strand shown; medium: in vitro; tested at: 940 nM top; setting: 60-bp whole probe; together with: salmon DNA 0.4 mg/ml; relative to: random background probes; reading: higher = stronger binding; shared flanks, not repeated: GCCTAGCAC … GTCTTGATTCGCTTGACGCTGCTG
Target: Interferon regulatory factor 5, full length, phosphomimetic (IRF5, Homo sapiens, UniProt Q13568-2, residues 1-514, S451D/S453D/S456D/S462D)
| Strand | fitted relative affinity |
| --- | --- |
| TTAGTTTTCGGGTATCGGTTAGTGCTA | 4.98 z-score |
| GACGGTCTCCGTCTCGGGACGTGCTAG | -0.104 z-score |
| GACGTTATCGGGTTTCGGGACGTGCTA | 2.13 z-score |
| TCATTTTCCTCTGTCATACTGTGCTAG | 1.37 z-score |
| GACGGTATCCTTATCCTCACGTGCTAG | 0.418 z-score |
| GGACCGCGACCTGCCAAGTCGTGCTAG | -0.638 z-score |
| TTTGTAATCGAAATCTTCATGTGCTAG | -0.174 z-score |
| TTAGCTTTCGGTTCCGGTTAGTGCTAG | 6.94 z-score |
| GAGGGTATCGACTTTCGGGACGTGCTA | 2.94 z-score |
| TCATACATGCATATAGTACTGTGCTAG | -0.0463 z-score |
| TGTTTTTGCTTTCTTTATGTGTGCTAG | 2.23 z-score |
| GACGGTATCGGACTGGGAACGTGCTAG | 2.39 z-score |
| TCATTTTTTTATTTATAACTGTGCTAG | 0.903 z-score |
| TTAGATCTCAGACGGGATTAGTGCTAG | -0.35 z-score |
| GACGAACTGCTTCTCCTGACGTGCTAG | -0.0909 z-score |
| TTAGATTTCAGTATCAATTAGTGCTAG | 1.76 z-score |
| TTAGGTTTCGGTTTTCGGTTAGTGCTA | 13.2 z-score |
| TTAAATATCGGGTATCGATTAGTGCTA | 3.21 z-score |
| TTAGGACTGGGGACTGGGTTAGTGCTA | -0.573 z-score |
| TTAGGACTGGGGTATCGCTTAGTGCTA | 0.617 z-score |
| TCATGTCTCCCCCATCTTACTGTGCTA | 0.964 z-score |
| TTAGGTTTCGGGTATCGGTTTGTGCTA | 11.1 z-score |

Repeated from above (sample 3):
| Variant | normalised enrichment score |
| --- | --- |
| TLKGRRLVFDNKL [Q12K] | 0.0548 |
| TLKGIRLVFDNQL [R5I] | -0.244 |
| TLKGRTLVFDNQL [R6T] | 0.454 |
| TLKGRRLVFDGQL [N11G] | 0.507 |
| TLKGRRLVTDNQL [F9T] | 0.153 |
| TLKGRRLIFDNQL [V8I] | 0.0527 |
| LLKGRRLVFDNQL [T1L] | 0.0506 |
| TLKGFRLVFDNQL [R5F] | 0.0737 |
| TLKGHRLVFDNQL [R5H] | -0.243 |
| TCKGRRLVFDNQL [L2C] | 0.102 |
